Measured values gathered from unrelated publications.
Several values in a cell are separate wells, animals, samples, runs or records.
Cell line: MDA-MB-231

| Structure (SMILES) | assay | setting | IC50 |
| --- | --- | --- | --- |
| COc1c(C)c(OCc2ccccc2)c(C)c(OCc2ccccc2)c1C(=O)/C=C/c1ccccc1 | cell growth or viability, SRB | 72 h | > 50 µM |
| C[C@@H]1CC[C@@H]([C@@](O)(COCc2ccccc2)Cn2cnc3ccccc32)[C@H](OCc2ccccc2)C1 | cell growth or viability, MTT | 72 h | 12.4 µM |
| CCCc1cc2cc(-n3nc(CO)c4c3CC(C)(C)CC4=O)cc(N3CCC(O)CC3)c2c(=O)[nH]1 | cell growth or viability, MTS | – | > 50 µM |
| O=C1C(Cl)=C(NCCN2CCOCC2)C(=O)c2ncccc21 | cell growth or viability, MTT | 48 h | 5.75 µM |
| CC(=O)[O][Pd][c]1ccccc1-n1nc(C)cc1C.CC(=O)[O][Pd][c]1ccccc1-n1nc(C)cc1C | cell growth or viability, MTT | – | 39.2 µM |
| COc1ccccc1CNC[C@](O)(COCc1ccccc1)[C@@H]1CC[C@@H](C)C[C@H]1OCc1ccccc1 | cell growth or viability, MTT | 72 h | 2.45 µM |
| COc1cc(S(=O)(=O)Oc2ccc3[nH]c(C)cc3c2F)cc(OC)c1OC | cell growth or viability, fluorescence | 5 days | 0.00779 µM |
| O=C(c1ccncc1)N1CCN(CC(OCc2ccc3ccccc3c2)c2ccc(Cl)cc2Cl)CC1 (centres unmarked) | cell growth or viability, MTT | 24 h | 37.2 µM |
| NC(=S)NN=Cc1ccc([N+](=O)[O-])o1 | cell growth or viability, resazurin | – | 44 µM |
| CCCc1cc2cc(-n3nc(C)c4c3CC(C)(C)C(C)C4=O)cc(N3CCC(O)CC3)c2c(=O)[nH]1 (racemic) | cell growth or viability, MTS | – | 14.4 µM |
| C[C@@H]1CC[C@@H]([C@@](O)(CNCc2ccc(F)cc2)COCc2ccc(F)cc2)[C@H](OCc2ccc(F)cc2)C1 | cell growth or viability, MTT | 72 h | 1.91 µM |
| CNS(=O)(=O)Nc1nccc(Cc2c(C)c3ccc(Oc4ncccc4F)cc3oc2=O)c1F | cell viability | 7 days | 0.144 µM |
| CCCC(=O)Oc1c(C)c(OC)c2c(c1C)OC(=O)[C@@H](CC)[C@]2(O)/C=C/c1ccccc1 (racemic) | cell growth or viability, SRB | 72 h | > 50 µM |
| Cc1ccccc1/C=C/C(=O)N[C@@H](CO)C(=O)N[C@H](C(=O)N[C@H](Cc1ccccc1)C(=O)O)[C@@H](C)O | – | – | > 20 µM |
| CNC(NN=Cc1ccc([N+](=O)[O-])o1)=[S+][Au-][Cl] | cell growth or viability, resazurin | – | 18.3 µM |
| CC[C@H](C)/C=C/C=C/C(O)=C/C(=O)C(F)(F)F | cell growth, CellTiter-Glo | – | 66.7 µM and 59.7 µM |
| CCOC(=O)/C=C1\S/C(=N\N=C\c2cccc3cc4ccccc4nc23)N(c2ccc(F)cc2)C1=O | cell growth or viability, MTT | 48 h | > 50 µM |
| O=C(c1ccc(Cl)cc1Cl)N1CCN(CC(OCc2ccc3ccccc3c2)c2ccc(Cl)cc2Cl)CC1 (centres unmarked) | cell growth or viability, MTT | 24 h | 35.6 µM |
| COC(=O)N1c2ccc3c(nc(Cc4ccccc4)n3[C@@H]3CCC[C@@H](C(=O)O)C3)c2CC[C@@H]1C | cell growth or viability, ATP luminescence | 10 days | 2.16 µM |
| Clc1ccc(C(Cn2cncn2)OCc2ccc3ccccc3c2)c(Cl)c1 (centres unmarked) | cell growth or viability, MTT | 24 h | 33 µM |
| COc1cccc(CNC[C@](O)(COCc2ccccc2)[C@@H]2CC[C@@H](C)C[C@H]2OCc2ccccc2)c1 | cell growth or viability, MTT | 72 h | 1.89 µM |
| COc1cccc(N2C(=O)CS/C2=N\N=C\c2cccc3cc4ccccc4nc23)c1 | cell growth or viability, MTT | 48 h | > 50 µM |
| COc1ccc(CNc2ccc3c(c2)S(=O)(=O)C=C3)cc1 | cell growth or viability, ATP luminescence | 72 h | 1.5 µM |
| CCCc1cc2cc(-n3nc(C4CCC4)c4c3CC(C)(C)CC4=O)cc(N3CCC(O)CC3)c2c(=O)[nH]1 | cell growth or viability, MTS | – | 7.68 µM |

| Structure (SMILES) | assay | setting | IC50 |
| --- | --- | --- | --- |
| CCOC(=O)/C=C1\S/C(=N\N=C\c2cccc3cc4ccccc4nc23)N(c2ccc(OC)cc2)C1=O | cell growth or viability, MTT | 48 h | > 50 µM |
| CC(=O)OC[C@H]1O[C@@H](Oc2ccc(C#[C][Pt+])cc2)[C@H](OC(C)=O)[C@@H](OC(C)=O)[C@@H]1OC(C)=O.O=S(=O)([O-])C(F)(F)F.c1ccc(-c2cccc(-c3ccccn3)n2)nc1 | cell growth or viability | 24 h | > 100 µM |
| CCCCCC(=O)Oc1c(C)c(OC)c2c(/C=C/c3ccccc3)c(CCCC)c(=O)oc2c1C | cell growth or viability, SRB | 72 h | > 50 µM |
| Cc1ccnc(-c2cc(C(=O)O)ccn2)c1.F[P-](F)(F)(F)(F)F.F[P-](F)(F)(F)(F)F.[Ru+2].c1ccc(-c2ccccn2)nc1.c1ccc(-c2ccccn2)nc1 | cell viability | 48 h, dark | > 100 µM |
| COC1CC(=O)C2C(O)C=CC(O)C2C12Oc1cccc3cccc(c13)O2 (centres unmarked) | cell growth or viability, resazurin | 72 h | 12.6 µM |
| CC(C)CN1C(=O)CS/C1=N\N=C\c1cccc2cc3ccccc3nc12 | cell growth or viability, MTT | 48 h | > 50 µM |
| O=C(c1ccc(Br)cc1)N1CCN(CC(OCc2ccc3ccccc3c2)c2ccc(Cl)cc2Cl)CC1 (centres unmarked) | cell growth or viability, MTT | 24 h | 45.7 µM |
| CC[C@H](C)/C=C/C=C/C=C/C(O)=C/C(=O)C(F)(Cl)Cl | cell growth, CellTiter-Glo | – | 15.8 µM |
| Nc1ncnc2c1ncn2CCN1C(=O)/C(=N\N=C2/NC(=O)CS2)c2ccccc21 | cell growth or viability, SRB | 72 h | 56.5 µg/mL |
| CC(C)(C)OC(=O)N1CCN(CC(OCc2ccc(Br)cc2)c2ccc(Cl)cc2Cl)CC1 (centres unmarked) | cell growth or viability, MTT | 24 h | 26.2 µM |
| CCCc1cc2cc(-n3nc(C(F)(F)F)c4c3CC(C)(C)CC4=O)cc(N3CCC(O)CC3)c2c(=O)[nH]1 | cell growth or viability, MTS | – | 3.31 µM |
| COc1ccc(N2C(=O)CS/C2=N\N=C\c2cccc3cc4ccccc4nc23)cc1 | cell growth or viability, MTT | 48 h | > 50 µM |
| O=C1CS/C(=N\N=C2/C(=O)N(CCn3ncc4c(=O)[nH]cnc43)c3ccc(Cl)cc32)N1 | cell growth or viability, SRB | 72 h | 23.6 µg/mL |
| Clc1ccc(C(Cn2cnc3ccccc32)OCc2ccc3ccccc3c2)c(Cl)c1 (centres unmarked) | cell growth or viability, MTT | 24 h | > 50 µM |
| CC[C@H](C)/C=C/C=C/C(O)=C/C(=O)C(F)(F)Cl | cell growth, CellTiter-Glo | – | 296 µM |
| CN1C(=O)CS/C1=N\N=C\c1cccc2cc3ccccc3nc12 | cell growth or viability, MTT | 48 h | > 50 µM |
| COc1ccc(CNC[C@@](O)(COCc2ccccc2)[C@@H]2CC[C@@H](C)C[C@H]2OCc2ccccc2)cc1 | cell growth or viability, MTT | 72 h | 3.15 µM |
| C#CCNC(=O)[C@@]1(C)C(=O)CC[C@]2(C)[C@H]3C(=O)C=C4[C@@H]5[C@@H](C)[C@H](C)CC[C@]5(C)CC[C@@]4(C)[C@]3(C)CC[C@@H]12 | cell growth or viability, MTT | 24 h | 115 µM |
| CCCCCCCCCC(=O)Oc1c(C)c(OC)c2c(/C=C/c3ccccc3)c(CCCCCCCC)c(=O)oc2c1C | cell growth or viability, SRB | 72 h | > 50 µM |
| O=C(c1cccnc1)N1CCN(CC(OCc2ccc3ccccc3c2)c2ccc(Cl)cc2Cl)CC1 (centres unmarked) | cell growth or viability, MTT | 24 h | 26.5 µM |
| CCCc1cc2cc(-n3c4c(c5ccccc53)C(=O)CC(C)(C)C4)cc(N3CCC(O)CC3)c2c(=O)[nH]1 | cell growth or viability, MTS | – | 8.63 µM |
| CN1CCN(CC(=O)N2CCN(CC(OCc3ccc4ccccc4c3)c3ccc(Cl)cc3Cl)CC2)CC1 (centres unmarked) | cell growth or viability, MTT | 24 h | 4.2 µM |
| O=[N+]([O-])c1ccc(C=NNC(=S)Nc2ccccc2)o1 | cell growth or viability, resazurin | – | > 100 µM |

Excerpt of the above:
| Structure (SMILES) | assay | setting | IC50 |
| --- | --- | --- | --- |
| CCCc1cc2cc(-n3nc(C4CCC4)c4c3CC(C)(C)CC4=O)cc(N3CCC(O)CC3)c2c(=O)[nH]1 | cell growth or viability, MTS | – | 7.68 µM |
| CCOC(=O)/C=C1\S/C(=N\N=C\c2cccc3cc4ccccc4nc23)N(c2ccc(OC)cc2)C1=O | cell growth or viability, MTT | 48 h | > 50 µM |
| CC(=O)OC[C@H]1O[C@@H](Oc2ccc(C#[C][Pt+])cc2)[C@H](OC(C)=O)[C@@H](OC(C)=O)[C@@H]1OC(C)=O.O=S(=O)([O-])C(F)(F)F.c1ccc(-c2cccc(-c3ccccn3)n2)nc1 | cell growth or viability | 24 h | > 100 µM |
| CCCCCC(=O)Oc1c(C)c(OC)c2c(/C=C/c3ccccc3)c(CCCC)c(=O)oc2c1C | cell growth or viability, SRB | 72 h | > 50 µM |
| Cc1ccnc(-c2cc(C(=O)O)ccn2)c1.F[P-](F)(F)(F)(F)F.F[P-](F)(F)(F)(F)F.[Ru+2].c1ccc(-c2ccccn2)nc1.c1ccc(-c2ccccn2)nc1 | cell viability | 48 h, dark | > 100 µM |
| COC1CC(=O)C2C(O)C=CC(O)C2C12Oc1cccc3cccc(c13)O2 (centres unmarked) | cell growth or viability, resazurin | 72 h | 12.6 µM |
| CC(C)CN1C(=O)CS/C1=N\N=C\c1cccc2cc3ccccc3nc12 | cell growth or viability, MTT | 48 h | > 50 µM |
| O=C(c1ccc(Br)cc1)N1CCN(CC(OCc2ccc3ccccc3c2)c2ccc(Cl)cc2Cl)CC1 (centres unmarked) | cell growth or viability, MTT | 24 h | 45.7 µM |
